Measured values gathered from unrelated publications.
Each line is one published result; not all experiments were run side by side.

Structure (SMILES)	assay	system	setting	how to read	quantity	result
Cn1c(-c2ccc(C(N)=O)cc2F)nnc1C(C)(C)Oc1c(F)cc(Cl)cc1F		human	oral, 1 mg, single ascending dose		subjects with any TEAE	50%
CC[C@H](C)CCCCC(=O)N[C@@H](CCN)C(=O)N[C@H](C(=O)N[C@@H](CCN)C(=O)N[C@H]1CCNC(=O)[C@H]([C@@H](C)O)NC(=O)[C@H](CCN)NC(=O)[C@H](CCN)NC(=O)[C@H](CC(C)C)NC(=O)[C@@H](Cc2ccccc2)NC(=O)[C@H](CCN)NC1=O)[C@@H](C)O		critically ill non-survivors, plasma	intravenous, 2.2 mg/kg/day, median		Cmax steady state	6000 ng/mL
C[C@@H](NC(=O)N1C(=O)[C@H](Cc2ccnc(N)c2)[C@H]1C(=O)O)C1CCCCC1		healthy Chinese adults	continuous intravenous infusion, 2.25 mg/kg/h, 5.0 days		urine leukocyte-positive	12.5%
CNC(=O)C(CCN1CCC(O)(c2ccc(Cl)cc2)CC1)(c1ccccc1)c1ccccc1	ultrafiltration	human, brain homogenate	1 µM, corrected for lysosomal trapping		unbound fraction in brain	0.008
C=CC(=O)Nc1cc(Nc2nccc(Nc3cc(Cl)c(F)cc3C(C)(C)O)n2)c(OC)cc1N1CC[C@@H](N(C)C)C1	treatment-emergent adverse events	human	oral, 50 mg, phase I clinical trial		incidence of blood creatine phosphokinase increased	0%
O=C1Nc2cc3[nH]nc(-c4ccncc4)c3cc2CN1Cc1ccccc1	CTCAE v4.03	advanced solid tumour patients	intravenous, 0.45 mg/kg, schedules 1/2		patients with fatigue	100%
CCN(CCO)CCCC(C)Nc1ccnc2cc(Cl)ccc12 (centres unmarked)	measured: Epistaxis grade 2	newly diagnosed glioblastoma patients	oral, 800 mg/dose, with radiotherapy and temozolomide		patients with adverse event	33%
CCCCCCCCCCCCCCCC(=O)N[C@@H](CCC(=O)NCCCC[C@H](NC(=O)[C@H](CC(=O)O)NC(=O)[C@H](CO)NC(=O)[C@@H](NC(=O)[C@H](Cc1ccccc1)NC(=O)[C@@H](NC(=O)CNC(=O)[C@H](CCC(N)=O)NC(=O)[C@H](CO)NC(=O)[C@@H](N)Cc1c[nH]cn1)[C@@H](C)O)[C@@H](C)O)C(=O)N[C@@H](CO)C(=O)N[C@@H](CCC(=O)O)C(=O)N[C@@H](Cc1ccc(O)cc1)C(=O)N[C@@H](CC(C)C)C(=O)N[C@@H](CC(=O)O)C(=O)N[C@@H](CO)C(=O)N[C@@H](CCC(=O)O)C(=O)N[C@@H](CCCNC(=N)N)C(=O)N[C@@H](C)C(=O)N[C@@H](CCCNC(=N)N)C(=O)N[C@@H](CC(=O)O)C(=O)N[C@@H](Cc1ccccc1)C(=O)N[C@H](C(=O)N[C@@H](C)C(=O)N[C@@H](Cc1c[nH]c2ccccc12)C(=O)N[C@@H](CC(C)C)C(=O)N[C@@H](CCC(=O)O)C(=O)N[C@@H](C)C(=O)NCC(=O)NCC(=O)O)C(C)C)C(=O)O	measured: Headache	humans CrCl 45 to 60 mL/min	subcutaneous, 100 µg single dose		treatment-related adverse events	0%
CC1(C)C(=O)N(c2ccc(C#N)c(C(F)(F)F)c2)C(=S)N1c1ccc(C(N)=O)c(F)c1	population PK final model	human	dose not given		peripheral volume of distribution	52.4 L
CCc1ccc(CC/C=C/c2ccc3c(c2)C(=O)CC3)cc1		Sprague-Dawley rat, female, serum	oral, 120 mg/kg/day, 14 days		total protein	63 g/L
C[C@H]1CN(C(=O)CC#N)[C@]12CCN(c1ncnc3[nH]ccc13)C2		dog, female	oral, 3 mg/kg repeated, 3 months		AUC at NOAEL	11500 ng·h/mL
C[C@]1(CO)Cc2ncn(-c3ccc(C#N)c(Cl)c3)c2C(=O)O1		human, plasma	10 mg single dose, median		tmax	1 h
O=C(Nc1ccccc1)C1CCN(C(=O)Oc2cccnc2)CC1	Bond-Lader VAS	healthy women	oral, 100 mg	relative to: pre-dose baseline, direction not given	change in contentment score	14
COc1cc2c(Oc3ccc4[nH]c(C)cc4c3F)ccnc2cc1OCC1(N)CC1		paediatric recurrent refractory sarcoma	10 mg		grade 3 blurred vision	0%

For quick reference, copied from above:
Structure (SMILES)	assay	system	setting	how to read	quantity	result
C[C@H]1CN(C(=O)CC#N)[C@]12CCN(c1ncnc3[nH]ccc13)C2		dog, female	oral, 3 mg/kg repeated, 3 months		AUC at NOAEL	11500 ng·h/mL
